{"data": "Measured values from different studies", "organism": "Plasmodium falciparum", "note": "± gives the spread as reported."}
{"Compound": "COC(=O)c1[nH]c(C(=O)OC)c2c1c1c3cc(Cl)ccc3[nH]c1c1[nH]c3ccc(Cl)cc3c12", "test": "parasite growth, SYBR Green", "system": "DD2", "setting": "72 h, drug-resistant strain, blood stage", "EC50 [µM]": 1}
{"Compound": "COc1ccc(C2Sc3ccccc3NC3=C2C(=O)c2ccccc23)cc1 (racemic)", "test": "growth, hypoxanthine uptake", "system": "Dd2 expressing yeast DHOD", "EC50 [µM]": "> 5"}
{"Compound": "CCC12CCCN(C=CC(=O)OC)CCc3c(n(c4ccccc34)CC1)C2Oc1ccccc1 (stereo not drawn)", "test": "parasite growth, SYBR Green", "system": "DD2", "setting": "drug-resistant strain, blood stage", "EC50 [µM]": 3.1}
{"Compound": "CC(C)C1NC(=O)C(Cc2ccccc2)NC(=O)C(CCCCCC(=O)C2CO2)NC(=O)C2CCCCN2C1=O (stereo not drawn)", "test": "parasite growth, SYBR Green", "system": "DD2", "setting": "drug-resistant strain, blood stage", "EC50 [µM]": 0.24}
{"Compound": "CC(C)C[C@@H](NC(=O)[C@@H](C)NC(=O)[C@@H](CC(C)C)NC(=O)[C@@H](CCCCN)NC(=O)[C@@H](CCCCN)NC(=O)[C@@H](CC(C)C)NC(=O)[C@@H](C)NC(=O)[C@H]1CCCN1C(=O)[C@@H](CC(C)C)NC(=O)[C@@H](Cc1c[nH]c2ccccc12)NC(=O)[C@@H](CCCCN)NC(=O)[C@@H](CCCCN)NC(=O)[C@@H](CC(C)C)NC(=O)[C@@H](C)NC(=O)[C@@H](CC(C)C)NC(=O)[C@@H](CC(C)C)NC(=O)[C@@H](C)NC(=O)[C@@H](CC(C)C)NC(=O)[C@@H](CCCCN)NC(=O)[C@H](N)CCCCN)C(=O)N[C@H](CC(C)C)C(=O)N[C@H](C)C(=O)N[C@H](CC(C)C)C(=O)N[C@H](CCCCN)C(=O)N[C@H](CCCCN)C(N)=O", "test": "SYBR Green fluorescence", "system": "3D7", "setting": "48 h, 37 °C", "EC50 [µM]": "0.88 ± 0.08"}
{"Compound": "Nc1ccc(C(=O)/C=C/c2ccccc2F)cc1", "test": "parasite growth", "setting": "48 h, drug-resistant strain, blood stage", "EC50 [µM]": "> 200"}
{"Compound": "CC(C)C[C@@H](NC(=O)[C@@H](C)NC(=O)[C@@H](CC(C)C)NC(=O)[C@@H](CCCCN)NC(=O)[C@H](N)CCCCN)C(=O)N[C@H](Cc1c[nH]cn1)C(=O)N[C@H](C)C(=O)N[C@H](CC(C)C)C(=O)N[C@H](CCCCN)C(=O)N[C@H](CCCCN)C(=O)N[C@H](Cc1c[nH]c2ccccc12)C(=O)N[C@H](CC(C)C)C(=O)N[C@H](Cc1c[nH]cn1)C(=O)N[C@H](C)C(=O)N[C@H](CC(C)C)C(=O)N[C@H](CCCCN)C(=O)N[C@H](CCCCN)C(=O)N[C@H](CC(C)C)C(=O)N[C@H](C)C(=O)N[C@H](Cc1c[nH]cn1)C(=O)N[C@H](CC(C)C)C(=O)N[C@H](C)C(=O)N[C@H](CC(C)C)C(=O)N[C@H](CCCCN)C(=O)N[C@H](CCCCN)C(N)=O", "test": "SYBR Green fluorescence", "system": "C10", "setting": "48 h, 37 °C", "EC50 [µM]": "4.43 ± 0.33"}
{"Compound": "O=C1C2=C(Nc3ccccc3SC2C2CCCCC2)c2ccccc21 (racemic)", "test": "growth, hypoxanthine uptake", "system": "Dd2 expressing yeast DHOD", "EC50 [µM]": "> 5"}
{"Compound": "CC[C@@]12CCCN(C#N)[C@@H]1c1c(CCn3cc(-c4cccc(Cl)c4)nn3)c3ccccc3n1[C@](O)(C(=O)OC)C2", "test": "parasite growth, SYBR Green", "system": "DD2", "setting": "drug-resistant strain, blood stage", "EC50 [µM]": 8.85}
